Assay results of several laboratories.
Every numbered part comes from another study and shows a few of its results, in no order. Several values in a cell are separate wells, animals, samples, runs or records.
UniProt Q13882, sequence (whole entry, looked up): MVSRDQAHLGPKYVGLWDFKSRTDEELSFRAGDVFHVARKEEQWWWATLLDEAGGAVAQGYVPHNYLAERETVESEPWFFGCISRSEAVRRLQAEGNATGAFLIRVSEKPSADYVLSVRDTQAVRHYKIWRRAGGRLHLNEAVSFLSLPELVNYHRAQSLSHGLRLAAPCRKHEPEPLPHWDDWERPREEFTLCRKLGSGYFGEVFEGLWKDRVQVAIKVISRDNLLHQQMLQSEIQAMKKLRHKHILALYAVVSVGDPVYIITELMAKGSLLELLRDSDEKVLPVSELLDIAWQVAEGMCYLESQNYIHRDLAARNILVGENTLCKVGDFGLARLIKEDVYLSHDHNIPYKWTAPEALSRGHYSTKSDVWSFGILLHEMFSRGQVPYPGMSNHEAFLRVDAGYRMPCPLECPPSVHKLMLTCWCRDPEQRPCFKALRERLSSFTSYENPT
UniProt Q92918, sequence (whole entry, looked up): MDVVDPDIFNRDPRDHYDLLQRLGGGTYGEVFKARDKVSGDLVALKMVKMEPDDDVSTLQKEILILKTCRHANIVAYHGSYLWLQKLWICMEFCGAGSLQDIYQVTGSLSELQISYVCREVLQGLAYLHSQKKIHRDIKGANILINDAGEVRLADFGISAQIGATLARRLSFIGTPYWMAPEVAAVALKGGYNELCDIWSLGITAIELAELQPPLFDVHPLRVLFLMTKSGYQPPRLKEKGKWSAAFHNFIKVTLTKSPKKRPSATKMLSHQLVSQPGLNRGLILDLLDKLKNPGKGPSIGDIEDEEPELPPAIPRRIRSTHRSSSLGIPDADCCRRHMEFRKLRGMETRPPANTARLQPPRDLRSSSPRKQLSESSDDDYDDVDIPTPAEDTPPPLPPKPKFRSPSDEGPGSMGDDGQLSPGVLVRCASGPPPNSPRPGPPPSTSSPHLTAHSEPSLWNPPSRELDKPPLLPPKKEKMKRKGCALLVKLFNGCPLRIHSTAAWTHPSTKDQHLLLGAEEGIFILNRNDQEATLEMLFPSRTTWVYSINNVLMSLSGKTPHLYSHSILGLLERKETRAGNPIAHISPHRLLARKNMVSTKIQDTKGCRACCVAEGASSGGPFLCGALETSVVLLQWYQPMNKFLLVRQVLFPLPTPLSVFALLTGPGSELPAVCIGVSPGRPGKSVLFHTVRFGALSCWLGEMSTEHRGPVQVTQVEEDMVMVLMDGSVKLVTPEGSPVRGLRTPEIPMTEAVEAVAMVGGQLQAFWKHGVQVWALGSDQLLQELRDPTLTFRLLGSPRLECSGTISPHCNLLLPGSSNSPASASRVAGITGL
UniProt P07333, sequence (whole entry, looked up): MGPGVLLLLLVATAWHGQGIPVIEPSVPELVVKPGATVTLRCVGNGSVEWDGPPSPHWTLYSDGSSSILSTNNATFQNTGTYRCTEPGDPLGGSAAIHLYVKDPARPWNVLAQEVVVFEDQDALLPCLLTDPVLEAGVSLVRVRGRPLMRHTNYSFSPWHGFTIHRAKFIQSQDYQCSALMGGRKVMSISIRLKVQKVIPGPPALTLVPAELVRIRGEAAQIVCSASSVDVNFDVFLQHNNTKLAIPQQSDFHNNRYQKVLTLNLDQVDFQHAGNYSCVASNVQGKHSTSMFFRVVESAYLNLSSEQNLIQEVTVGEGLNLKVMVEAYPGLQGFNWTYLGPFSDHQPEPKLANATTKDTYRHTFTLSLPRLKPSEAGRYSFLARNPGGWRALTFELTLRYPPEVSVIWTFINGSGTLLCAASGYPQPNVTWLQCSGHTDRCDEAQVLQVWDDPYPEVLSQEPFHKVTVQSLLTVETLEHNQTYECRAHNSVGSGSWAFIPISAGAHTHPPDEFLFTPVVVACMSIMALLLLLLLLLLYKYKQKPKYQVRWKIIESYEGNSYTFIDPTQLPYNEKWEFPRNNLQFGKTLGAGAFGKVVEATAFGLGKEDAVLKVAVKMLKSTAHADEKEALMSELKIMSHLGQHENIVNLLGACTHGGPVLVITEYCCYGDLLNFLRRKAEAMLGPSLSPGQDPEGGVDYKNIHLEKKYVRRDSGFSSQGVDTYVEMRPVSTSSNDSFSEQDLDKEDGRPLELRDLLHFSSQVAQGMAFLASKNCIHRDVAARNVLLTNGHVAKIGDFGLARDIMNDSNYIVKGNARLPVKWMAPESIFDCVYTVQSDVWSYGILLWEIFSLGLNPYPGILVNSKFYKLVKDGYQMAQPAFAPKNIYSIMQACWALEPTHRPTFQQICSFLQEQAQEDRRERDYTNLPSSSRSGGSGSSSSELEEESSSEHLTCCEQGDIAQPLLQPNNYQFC

Sample 1 — species: mouse; sample: microsomes or S9; concentration: 2 µM; time: 0.5 h
SMILES | remaining compound
COc1ccc([C@H]2Oc3cc(OC)cc(OC)c3C[C@H]2O)cc1 | 0.481%
Cc1nn(C)c(C)c1S(=O)(=O)Nc1ccc(-n2nn[nH]c2=O)cc1 | 73.7%
O=C1OCc2c(-c3ccccc3)sc(-c3ccc4c(c3)OCO4)c21 | 36.9%
Cc1noc(C)c1-c1cc(CCC2CNCCO2)ncn1 (stereo not drawn) | > 100%
C=CCn1c(=O)n(Cc2cccnc2)c2nc(N)nc(Cl)c21 | 28.5%
Clc1ccc2c(c1)C=C(c1nnc(Cc3ccccc3)o1)C=CO2 | 21.8%

Sample 2 — observed: cell-free assay; technique: competition with immobilised ligand; concentration: 1 µM
Compound: CN([C@@H]1CCc2c(CC(=O)O)c3ccccc3n2C1)S(=O)(=O)c1ccc(F)cc1
target | remaining binding [%]
CDK9 (Homo sapiens, UniProt P50750) | 100
MAPK6 (Homo sapiens, UniProt Q16659) | 100
SGK1 (Homo sapiens, UniProt O00141) | 100
PAK5 (Homo sapiens, UniProt Q9P286) | 100
MAP4K1 (Homo sapiens, UniProt Q92918) | 100
EPHB6 (Homo sapiens, UniProt O15197) | 83
PI4KB (Homo sapiens, UniProt Q9UBF8) | 100
CSNK1G1 (Homo sapiens, UniProt Q9HCP0) | 100
LRRK2 (Homo sapiens, UniProt Q5S007, G2019S) | 100
TYRO3 (Homo sapiens, UniProt Q06418) | 72
PTK6 (Homo sapiens, UniProt Q13882) | 100
PIP5K1A (Homo sapiens, UniProt Q99755) | 100
PTK2 (Homo sapiens, UniProt Q05397) | 100
GRK2 (Homo sapiens, UniProt P25098) | 86
CSF1R (Homo sapiens, UniProt P07333) | 100
PIM1 (Homo sapiens, UniProt P11309) | 96
FLT3 (Homo sapiens, UniProt P36888, R834Q) | 100
Tyrosine-protein kinase JAK1, JH2 (JAK1, Homo sapiens, UniProt P23458) | 83
SYK (Homo sapiens, UniProt P43405) | 100
LATS1 (Homo sapiens, UniProt O95835) | 69

Sample 3 — observed: enzyme activity; mode: inhibitor; concentration: 77 µM; relative to: untreated
Target: DNA polymerase theta, ATPase domain (POLQ, Homo sapiens, UniProt O75417)
UniProt O75417, sequence (whole entry, unmodified, looked up): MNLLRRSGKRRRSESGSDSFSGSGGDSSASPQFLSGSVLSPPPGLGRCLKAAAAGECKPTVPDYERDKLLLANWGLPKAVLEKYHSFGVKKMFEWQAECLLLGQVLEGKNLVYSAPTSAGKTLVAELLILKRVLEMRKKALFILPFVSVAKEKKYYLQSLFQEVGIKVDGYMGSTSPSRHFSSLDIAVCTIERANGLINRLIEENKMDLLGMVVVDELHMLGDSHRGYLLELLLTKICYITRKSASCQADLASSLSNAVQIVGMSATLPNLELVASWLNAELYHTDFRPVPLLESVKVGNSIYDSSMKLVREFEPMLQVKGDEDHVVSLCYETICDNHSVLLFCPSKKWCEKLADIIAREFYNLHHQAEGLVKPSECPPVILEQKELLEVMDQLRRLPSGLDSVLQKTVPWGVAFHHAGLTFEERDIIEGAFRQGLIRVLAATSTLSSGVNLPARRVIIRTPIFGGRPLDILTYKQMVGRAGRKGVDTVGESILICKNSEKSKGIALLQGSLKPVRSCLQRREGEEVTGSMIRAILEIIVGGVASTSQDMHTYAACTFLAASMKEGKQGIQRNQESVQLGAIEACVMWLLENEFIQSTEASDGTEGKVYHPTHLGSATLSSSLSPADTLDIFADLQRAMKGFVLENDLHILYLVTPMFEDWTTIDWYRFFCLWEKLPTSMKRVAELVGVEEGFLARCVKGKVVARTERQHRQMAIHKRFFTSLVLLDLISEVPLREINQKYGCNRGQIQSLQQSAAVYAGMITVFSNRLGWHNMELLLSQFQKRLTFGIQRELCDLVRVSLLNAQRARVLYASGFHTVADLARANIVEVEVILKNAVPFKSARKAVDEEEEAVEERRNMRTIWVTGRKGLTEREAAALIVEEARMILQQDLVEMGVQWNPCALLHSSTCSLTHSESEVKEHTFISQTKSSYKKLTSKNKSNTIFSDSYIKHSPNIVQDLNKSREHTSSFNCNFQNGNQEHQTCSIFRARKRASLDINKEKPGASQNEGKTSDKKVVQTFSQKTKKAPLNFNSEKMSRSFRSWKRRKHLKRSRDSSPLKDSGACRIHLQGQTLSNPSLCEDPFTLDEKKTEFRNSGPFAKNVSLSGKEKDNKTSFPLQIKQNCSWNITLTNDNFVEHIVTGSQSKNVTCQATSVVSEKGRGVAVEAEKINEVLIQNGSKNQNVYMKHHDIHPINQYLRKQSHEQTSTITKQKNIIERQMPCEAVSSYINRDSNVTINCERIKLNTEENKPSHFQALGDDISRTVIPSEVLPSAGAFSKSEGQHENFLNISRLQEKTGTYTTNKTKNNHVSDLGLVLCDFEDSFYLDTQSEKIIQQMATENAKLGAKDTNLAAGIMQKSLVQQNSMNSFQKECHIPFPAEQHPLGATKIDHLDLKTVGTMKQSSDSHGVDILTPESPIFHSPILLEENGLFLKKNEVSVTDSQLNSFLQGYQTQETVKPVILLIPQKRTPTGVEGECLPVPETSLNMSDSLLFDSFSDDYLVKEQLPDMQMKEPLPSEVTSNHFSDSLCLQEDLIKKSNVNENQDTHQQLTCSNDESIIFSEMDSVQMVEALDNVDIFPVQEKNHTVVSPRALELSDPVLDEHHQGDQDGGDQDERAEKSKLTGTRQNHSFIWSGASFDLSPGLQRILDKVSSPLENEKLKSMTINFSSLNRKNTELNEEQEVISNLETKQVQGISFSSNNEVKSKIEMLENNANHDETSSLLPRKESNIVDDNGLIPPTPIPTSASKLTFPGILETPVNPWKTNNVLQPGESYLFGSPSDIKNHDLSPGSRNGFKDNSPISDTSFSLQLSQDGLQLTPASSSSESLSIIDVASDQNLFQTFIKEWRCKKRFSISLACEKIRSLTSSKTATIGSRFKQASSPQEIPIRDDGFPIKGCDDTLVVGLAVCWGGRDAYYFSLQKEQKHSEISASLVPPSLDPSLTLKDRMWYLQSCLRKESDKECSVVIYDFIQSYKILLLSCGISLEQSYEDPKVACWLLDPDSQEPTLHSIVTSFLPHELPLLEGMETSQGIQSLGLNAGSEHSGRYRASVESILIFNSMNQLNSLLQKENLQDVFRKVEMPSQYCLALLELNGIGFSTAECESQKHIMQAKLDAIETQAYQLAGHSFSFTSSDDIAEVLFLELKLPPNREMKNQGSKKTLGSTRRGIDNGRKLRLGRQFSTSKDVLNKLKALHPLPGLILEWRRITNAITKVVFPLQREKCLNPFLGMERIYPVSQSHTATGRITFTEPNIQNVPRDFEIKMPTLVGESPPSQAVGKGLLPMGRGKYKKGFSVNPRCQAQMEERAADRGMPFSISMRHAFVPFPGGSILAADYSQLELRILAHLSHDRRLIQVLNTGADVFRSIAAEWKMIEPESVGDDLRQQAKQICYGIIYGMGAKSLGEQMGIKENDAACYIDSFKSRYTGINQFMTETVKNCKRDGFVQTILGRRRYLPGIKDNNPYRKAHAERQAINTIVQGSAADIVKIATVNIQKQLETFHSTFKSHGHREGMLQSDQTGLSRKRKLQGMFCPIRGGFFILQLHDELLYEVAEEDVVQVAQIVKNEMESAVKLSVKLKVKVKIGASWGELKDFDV
SMILES | remaining activity [%]
COc1cc2c(Nc3ccc(NC(=O)c4ccccc4)cc3)ncnc2cc1OCCCN1CCOCC1 | 105
O=C(/C=C/c1cccc(S(=O)(=O)Nc2ccccc2)c1)NO | 102
CNC(=O)[C@H]1O[C@@H](n2cnc3c(NCc4cccc(I)c4)nc(Cl)nc32)[C@H](O)[C@@H]1O | 113
C=C1C(=O)[C@]23[C@H](O)[C@H]1CC[C@H]2[C@@]12CO[C@]3(O)[C@@H](O)[C@@H]1C(C)(C)CC[C@@H]2O | 80.3
CCC[S+]([O-])c1ccc2[nH]c(NC(=O)OC)nc2c1 (stereo not drawn) | 84.3

Sample 4 — cell line: A-375; concentration: 100 µM; time: 36 h
Compound | viability [%]
CC(=O)NO | 113
Cc1cccc(Nc2cc(Cl)nc(SCC(=O)O)n2)c1C | 108
Cc1ccc(NC(=O)c2ccc(CN3CCN(C)CC3)cc2)cc1Nc1nc(-c2cccnc2)cs1 | 1.94
COC(=O)Nc1nc2ccc(C(=O)c3ccccc3)cc2[nH]1 | 3.4
Nc1nnc(-c2cccc(Cl)c2Cl)c(N)n1 | 115
CC1(C)[C@@H](OC(=O)CCC(=O)O)CC[C@]2(C)[C@H]3C(=O)C=C4[C@@H]5C[C@@](C)(C(=O)O)CC[C@]5(C)CC[C@@]4(C)[C@]3(C)CC[C@@H]12 | 19.6

Sample 5 — cell line: mouse MPNST tumor cells; technique: high-content nuclear imaging; item: cell number; concentration: 10 µM; time: 12 h; setting: mean of 2 replicates; relative to: plate mean; reading: higher = more cells
SMILES | nuclei count
CCOc1ccc(NC(=S)N2CCC(C(O)(c3ccccc3)c3ccccc3)CC2)cc1 | 3.63 z-score
Nc1nc(N)c2nc(-c3cccc(Cl)c3)c(N)nc2n1 | -1.11 z-score
CCOc1ccccc1OC(c1ccccc1)C1CNCCO1 (stereo not drawn) | 2.99 z-score and 3.71 z-score
C[C@H](NC(=O)c1sccc1OCc1ccc(Cl)cc1)c1ccccc1 | 2.28 z-score
O=C([C@@H](Cc1cccc(C(F)(F)F)c1)NS(=O)(=O)c1cc(F)c2c(c1)CCNC2)N1CCCC1 | 2.43 z-score
